Published values collected from several papers.
Each numbered part is a random draw from the data of one study; scales do not carry over between parts. “And” joins repeats or separate records; there may be more than shown.
Sequence of UniProt P21917 (whole entry, looked up): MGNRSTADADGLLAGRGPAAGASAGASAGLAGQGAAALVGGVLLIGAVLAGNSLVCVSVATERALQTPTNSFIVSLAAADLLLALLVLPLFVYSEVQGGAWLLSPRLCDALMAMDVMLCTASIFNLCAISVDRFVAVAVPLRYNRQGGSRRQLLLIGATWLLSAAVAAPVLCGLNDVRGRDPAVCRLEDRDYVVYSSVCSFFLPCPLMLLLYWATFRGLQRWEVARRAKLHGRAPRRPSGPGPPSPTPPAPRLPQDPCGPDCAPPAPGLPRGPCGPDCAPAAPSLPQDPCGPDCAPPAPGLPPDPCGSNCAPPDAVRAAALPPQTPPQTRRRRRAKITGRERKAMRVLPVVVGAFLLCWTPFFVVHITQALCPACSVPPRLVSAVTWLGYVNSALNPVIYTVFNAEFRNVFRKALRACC
Sequence of UniProt P9WI81 (whole entry, looked up): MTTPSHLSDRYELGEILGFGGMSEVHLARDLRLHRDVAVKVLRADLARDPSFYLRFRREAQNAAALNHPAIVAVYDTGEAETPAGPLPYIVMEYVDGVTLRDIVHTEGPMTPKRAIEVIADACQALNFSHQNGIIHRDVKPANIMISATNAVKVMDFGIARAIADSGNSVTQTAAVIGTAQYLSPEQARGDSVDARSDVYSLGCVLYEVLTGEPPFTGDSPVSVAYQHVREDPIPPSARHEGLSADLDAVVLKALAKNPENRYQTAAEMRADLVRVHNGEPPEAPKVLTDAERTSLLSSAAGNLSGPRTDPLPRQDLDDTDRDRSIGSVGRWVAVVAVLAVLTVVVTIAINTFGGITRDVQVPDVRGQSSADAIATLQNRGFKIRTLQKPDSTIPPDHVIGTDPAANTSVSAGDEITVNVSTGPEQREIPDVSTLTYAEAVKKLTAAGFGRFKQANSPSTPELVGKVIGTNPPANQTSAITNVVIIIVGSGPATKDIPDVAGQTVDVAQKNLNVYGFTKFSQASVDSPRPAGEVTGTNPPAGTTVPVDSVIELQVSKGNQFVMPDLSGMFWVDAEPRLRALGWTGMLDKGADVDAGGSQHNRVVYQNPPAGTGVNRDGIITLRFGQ
Sequence of UniProt P28335 (whole entry, looked up): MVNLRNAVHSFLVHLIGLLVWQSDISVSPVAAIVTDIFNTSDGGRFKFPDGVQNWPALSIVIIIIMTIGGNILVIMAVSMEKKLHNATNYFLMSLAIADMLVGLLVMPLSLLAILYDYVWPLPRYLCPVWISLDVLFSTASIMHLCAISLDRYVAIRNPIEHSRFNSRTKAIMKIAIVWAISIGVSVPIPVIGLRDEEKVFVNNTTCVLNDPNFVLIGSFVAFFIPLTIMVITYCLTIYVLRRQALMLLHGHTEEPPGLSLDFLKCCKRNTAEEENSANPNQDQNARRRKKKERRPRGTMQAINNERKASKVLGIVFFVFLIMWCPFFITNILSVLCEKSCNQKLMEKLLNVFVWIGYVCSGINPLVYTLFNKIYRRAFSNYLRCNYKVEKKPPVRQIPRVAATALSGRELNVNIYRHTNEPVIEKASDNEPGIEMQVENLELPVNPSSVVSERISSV
Sequence of UniProt P61075 (whole entry, looked up): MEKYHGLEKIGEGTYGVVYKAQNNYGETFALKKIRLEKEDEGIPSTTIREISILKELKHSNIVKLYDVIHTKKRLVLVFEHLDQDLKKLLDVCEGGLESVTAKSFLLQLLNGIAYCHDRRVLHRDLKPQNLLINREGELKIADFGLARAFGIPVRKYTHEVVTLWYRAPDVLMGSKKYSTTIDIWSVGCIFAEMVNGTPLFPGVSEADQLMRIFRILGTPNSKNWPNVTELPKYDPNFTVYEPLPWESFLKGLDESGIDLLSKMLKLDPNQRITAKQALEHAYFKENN

Set 1
Organism: Plasmodium berghei
Mode: inhibitor
Cells: Huh-7
Strain: GFP-expressing sporozoites, liver stage
Tested at: 10 µM
Time: 24 h
Relative to: untreated control
Structure (SMILES) | infection rate
COc1cc2c(cc1OC)[C@@]13CCN4CC5=CCO[C@H]6CC(=O)N2[C@H]1[C@H]6[C@H]5C[C@H]43 | 48.6%
c1ccc2c(c1)sc1ccccc12 | 115%
CCCCOC(=O)c1ccccc1C(=O)OCCCC | 86.5%
Cc1ccc(/N=C/N(C)/C=N/c2ccc(C)cc2C)c(C)c1 | 134%

Set 2
Cell line: mouse MPNST tumor cells
Technique: high-content immunofluorescence imaging
Item: nuclear SOX9
Tested at: 10 µM
Time: 12 h
Setting: mean of 2 replicates
Relative to: DMSO control
Reading: higher = more nuclear SOX9
Structure (SMILES) | nuclear SOX9 intensity
CCC1(c2cccc(O)c2)CCCCN(C)C1 (stereo not drawn) | 96.2 % of DMSO and 98.5 % of DMSO
CC(=O)O[C@H]1CC[C@@]2(C)C(=CC[C@@H]3[C@@H]2CC[C@]2(C)C(=O)CC[C@@H]32)C1 | 97.8 % of DMSO
OC(CNc1ccccc1)Cn1c2ccc(Br)cc2c2cc(Br)ccc21 (stereo not drawn) | 163 % of DMSO
CC(N)Cc1c[nH]c2ccc(O)cc12 (stereo not drawn) | 86.7 % of DMSO
Cc1cc2c(cc1-c1cc(/C=C/C(=O)O)ccc1O)C(C)(C)CCC2(C)C | 126 % of DMSO
C[C@]12COC(=O)C[C@@H]1CC[C@@H]1[C@@H]2CC[C@@]2(C)[C@H]1CC[C@]2(C)O | 91.2 % of DMSO
COc1cccc(C2(O)CCCCC2CN(C)C)c1 (stereo not drawn) | 88.8 % of DMSO

Set 3
Target: Calcium/calmodulin-dependent protein kinase type II subunit alpha (CAMK2A, Homo sapiens, UniProt Q9UQM7)
Sequence of UniProt Q9UQM7 (whole entry, looked up): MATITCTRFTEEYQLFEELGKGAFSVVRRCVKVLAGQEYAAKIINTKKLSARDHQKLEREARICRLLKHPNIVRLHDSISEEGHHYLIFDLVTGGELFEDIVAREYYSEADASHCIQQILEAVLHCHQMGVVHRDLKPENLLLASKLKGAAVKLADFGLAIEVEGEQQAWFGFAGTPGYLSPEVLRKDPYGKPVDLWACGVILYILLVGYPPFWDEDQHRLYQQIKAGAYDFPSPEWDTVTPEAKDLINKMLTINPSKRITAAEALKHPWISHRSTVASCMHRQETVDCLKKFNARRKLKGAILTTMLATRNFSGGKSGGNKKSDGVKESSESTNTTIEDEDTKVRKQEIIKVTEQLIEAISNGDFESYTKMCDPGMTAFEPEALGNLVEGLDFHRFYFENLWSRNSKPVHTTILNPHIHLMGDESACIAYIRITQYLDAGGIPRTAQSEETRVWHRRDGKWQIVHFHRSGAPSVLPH
Effect on: enzyme activity
Mode: inhibitor
Tested at: 10 µM
Compound | inhibition [%]
O=C(CCCN1CCC2(CC1)C(=O)NCN2c1ccccc1)c1ccc(F)cc1 | -1
COC1=CC(=O)O[C@@H](CCc2ccc3c(c2)OCO3)C1 | -26
CNC[C@H](O)c1ccc(O)cc1 | -4

Single results of other studies
SMILES | target | effect on | technique | tested at | measurement | result
COCCOc1nc(-c2ccc(Cl)nc2)nc2c1CN(C(=O)c1ncn3ccccc13)CC2 | pknB (Mycobacterium tuberculosis, UniProt P9WI81) | cell-free assay | competition with immobilised ligand | 0.1 µM | remaining binding | 86%
C[C@@]1(Cc2ccc(C#N)cc2)C(=O)N(c2cc(Cl)cc(Cl)c2)c2ncc(C(=O)NC3(c4nc(C5CCC5)no4)CC3)n21 | HTR2C (Homo sapiens, UniProt P28335) | binding | radioligand binding | 10 µM | inhibition | 32.9%
CCC(=O)N[C@@H]1CC[C@H](C(=O)N(C)c2ccc(-c3nc4ccccc4o3)cc2)C1 | CRK2 (Plasmodium falciparum, UniProt P61075) | cell-free assay | competition with immobilised ligand | 1 µM | remaining binding | 100%
CNC(=O)c1cc(C(=O)NC2CC2)cn(Cc2ccccc2)c1=O | DRD4 (Homo sapiens, UniProt P21917) | binding | radioligand binding | 10 µM | inhibition | 6.96%

For quick reference, copied from above (set 2):
Structure (SMILES) | nuclear SOX9 intensity
OC(CNc1ccccc1)Cn1c2ccc(Br)cc2c2cc(Br)ccc21 (stereo not drawn) | 163 % of DMSO
CC(N)Cc1c[nH]c2ccc(O)cc12 (stereo not drawn) | 86.7 % of DMSO
Cc1cc2c(cc1-c1cc(/C=C/C(=O)O)ccc1O)C(C)(C)CCC2(C)C | 126 % of DMSO
